Assay results collected from several papers.
A part holds a random share of what one study measured. “And” joins repeats or separate records; there may be more than shown. ± marks the error that the study gave.

Study 1
Target: Replicase polyprotein 1ab, nsp13 helicase (rep, Severe acute respiratory syndrome coronavirus 2, UniProt P0DTD1)
Action: inhibitor
Tested at: 20 µM
Endpoint: inhibition
O[C@H]([C@H](O)[C@@H]1CO1)[C@H]1CO1: 1.15%
CN(C)CCN1C(=O)c2cccc3cc(NC(N)=O)cc(c23)C1=O: 21.5%
COc1ccc(Cc2nn3c([C@@H](CCCc4ccccc4)[C@@H](C)O)nc(C)c3c(=O)[nH]2)cc1OC: 5.87%
CN(C)CCC(c1ccc(Br)cc1)c1ccccn1 (stereo not drawn): 3.41%
O=C(CN1CCN(Cc2ccc3c(c2)OCO3)CC1)N1c2ccccc2Sc2ccccc21: -6.8%
O=C(O)C1CN(Cc2ccc(-c3nc4cc(Cc5ccccc5F)ccc4s3)c(F)c2)C1: -2.37%
Oc1ccc(/C=C/c2cc(O)cc(O)c2)cc1: 5.53%
Cc1cc(C)c(N(Cc2ccccc2)S(=O)(=O)c2ccc(OCCNC(=O)c3cc4ccccc4o3)cc2)c(C(=O)NO)c1: -0.1%
COc1ccc(S(=O)(=O)Nc2cccnc2Nc2ccc(O)cc2)cc1: 36.1%

Study 2
Cell line: HEK-293T
Read-out: pseudovirus infection
Method: FDA-approved drug library screen
Organism: VSV pseudotyped with SARS-CoV-2 spike
Tested at: 10 µM
Time: 16 h
Baseline: vehicle-treated
Endpoint: GFP-positive cells
CC(=O)[C@H]1CC[C@H]2[C@@H]3CCC4=CC(=O)CC[C@]4(C)[C@H]3CC[C@]12C: 101%
OC[C@@H](O)[C@@H](O)[C@H](O)[C@H](O)CO: 73.5%
C=CC[N+]1([C@H]2C[C@H]3[C@@H]4CC[C@H]5C[C@H](O)[C@@H](N6CCOCC6)C[C@]5(C)[C@H]4CC[C@]3(C)[C@H]2OC(C)=O)CCCC1: 86.4%
CC(C)(C)NCC(O)COc1cccc2c1CCC(=O)N2 (stereo not drawn): 78.7%

Study 3
Target: Replicase polyprotein 1ab, main protease (rep, Severe acute respiratory syndrome coronavirus 2, UniProt P0DTD1)
Read-out: enzyme activity
Action: inhibitor
Tested at: 20 µM
Setting: hit confirmation, with DTT
Endpoint: inhibition
CCn1c(-c2nonc2N)nc2cnc(Oc3cccc(NC(=O)c4ccc(OCCN5CCOCC5)cc4)c3)cc21: -11.9%
O=C(O)[C@@H](S)[C@@H](S)C(=O)O: 99.8% and -8.7%
Nc1ccc2cc3ccc(N)cc3nc2c1: 20.4%
O=[N+]([O-])c1ccc(O)c2ncccc12: -8.2%

Further values, each from its own experiment
CC[C@H](C)[C@H](NC(=O)[C@H](CC(C)C)NC(=O)[C@H](Cc1c[nH]c2ccccc12)NC(=O)[C@H](CCC(N)=O)NC(=O)[C@@H](NC(=O)[C@H](Cc1ccccc1)NC(=O)[C@H](C)NC(=O)[C@H](CCCCNC(=O)COCCOCCNC(=O)COCCOCCNC(=O)CC[C@H](NC(=O)CCCCCCCCCCCCCCCCCCC(=O)O)C(=O)O)NC(=O)[C@H](CCC(N)=O)NC(=O)[C@H](C)NC(=O)[C@@H](NC(=O)[C@H](CCCCN)NC(=O)[C@H](CC(=O)O)NC(=O)[C@H](CC(C)C)NC(=O)C(C)(C)NC(=O)[C@@H](NC(=O)[C@H](CO)NC(=O)[C@H](Cc1ccc(O)cc1)NC(=O)[C@H](CC(=O)O)NC(=O)[C@H](CO)NC(=O)[C@@H](NC(=O)[C@H](Cc1ccccc1)NC(=O)[C@@H](NC(=O)CNC(=O)[C@H](CCC(=O)O)NC(=O)C(C)(C)NC(=O)[C@@H](N)Cc1ccc(O)cc1)[C@@H](C)O)[C@@H](C)O)[C@@H](C)CC)[C@@H](C)CC)C(C)C)C(=O)N[C@@H](C)C(=O)NCC(=O)NCC(=O)N1CCC[C@H]1C(=O)N[C@@H](CO)C(=O)N[C@@H](CO)C(=O)NCC(=O)N[C@@H](C)C(=O)N1CCC[C@H]1C(=O)N1CCC[C@H]1C(=O)N1CCC[C@H]1C(=O)N[C@@H](CO)C(N)=O
total ALT (patients with type 2 diabetes, serum; 5/5/10/10 mg escalating, baseline): 30.7 ± 24.1 U/L

Excerpt of the above (study 1):
COc1ccc(Cc2nn3c([C@@H](CCCc4ccccc4)[C@@H](C)O)nc(C)c3c(=O)[nH]2)cc1OC: 5.87%
CN(C)CCC(c1ccc(Br)cc1)c1ccccn1 (stereo not drawn): 3.41%
O=C(CN1CCN(Cc2ccc3c(c2)OCO3)CC1)N1c2ccccc2Sc2ccccc21: -6.8%
